Experimental data collected from several papers.
Target: Death-associated protein kinase 1 (DAPK1, Homo sapiens, UniProt P53355)
Sequence of UniProt P53355 (whole entry, looked up): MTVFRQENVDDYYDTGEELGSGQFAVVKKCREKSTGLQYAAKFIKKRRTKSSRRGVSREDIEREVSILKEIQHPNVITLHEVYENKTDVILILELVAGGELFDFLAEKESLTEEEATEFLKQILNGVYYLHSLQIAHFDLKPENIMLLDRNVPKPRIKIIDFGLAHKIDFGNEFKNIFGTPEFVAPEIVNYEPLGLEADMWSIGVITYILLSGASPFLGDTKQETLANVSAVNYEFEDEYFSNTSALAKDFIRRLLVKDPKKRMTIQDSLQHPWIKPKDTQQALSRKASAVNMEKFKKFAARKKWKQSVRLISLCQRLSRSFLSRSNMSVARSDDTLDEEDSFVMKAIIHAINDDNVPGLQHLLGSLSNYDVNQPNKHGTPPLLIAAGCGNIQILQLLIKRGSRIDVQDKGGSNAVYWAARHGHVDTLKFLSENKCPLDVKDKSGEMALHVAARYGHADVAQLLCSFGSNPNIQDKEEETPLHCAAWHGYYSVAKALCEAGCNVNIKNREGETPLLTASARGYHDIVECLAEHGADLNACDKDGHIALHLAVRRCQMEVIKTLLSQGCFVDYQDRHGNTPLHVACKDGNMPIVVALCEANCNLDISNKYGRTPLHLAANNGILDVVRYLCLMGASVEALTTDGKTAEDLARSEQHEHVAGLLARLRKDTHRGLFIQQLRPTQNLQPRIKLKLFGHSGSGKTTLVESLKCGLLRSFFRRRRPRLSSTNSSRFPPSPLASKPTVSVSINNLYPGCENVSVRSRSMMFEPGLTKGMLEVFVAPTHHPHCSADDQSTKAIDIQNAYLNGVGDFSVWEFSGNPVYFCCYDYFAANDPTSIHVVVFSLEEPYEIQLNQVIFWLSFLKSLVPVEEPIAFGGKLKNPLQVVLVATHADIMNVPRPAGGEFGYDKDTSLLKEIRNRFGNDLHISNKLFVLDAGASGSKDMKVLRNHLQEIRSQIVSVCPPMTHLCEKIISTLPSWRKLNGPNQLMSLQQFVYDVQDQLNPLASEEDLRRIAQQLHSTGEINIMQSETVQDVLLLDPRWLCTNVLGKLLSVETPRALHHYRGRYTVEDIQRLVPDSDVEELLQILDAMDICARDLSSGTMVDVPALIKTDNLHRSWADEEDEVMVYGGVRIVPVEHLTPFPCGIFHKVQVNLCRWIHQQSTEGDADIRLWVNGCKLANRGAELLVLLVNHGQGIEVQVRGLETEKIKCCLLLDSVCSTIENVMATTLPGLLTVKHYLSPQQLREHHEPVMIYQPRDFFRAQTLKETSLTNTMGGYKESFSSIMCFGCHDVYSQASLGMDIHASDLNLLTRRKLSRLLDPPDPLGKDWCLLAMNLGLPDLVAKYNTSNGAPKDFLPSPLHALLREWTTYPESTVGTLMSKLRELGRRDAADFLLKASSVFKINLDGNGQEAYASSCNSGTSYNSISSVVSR

SMILES	assay	conditions	how to read	endpoint	result
O=C1[C@H]2CCCN2[C@H](c2ccc3c(c2)OCO3)N1c1ccc(Cl)c(Cl)c1 (mixture of isomers)	enzyme activity, inhibitor, ADP-Glo	100 µM		kinase activity	no effect
Cc1cc(Nc2cc(N3CCN(C)CC3)nc(Sc3ccc(NC(=O)C4CC4)cc3)n2)[nH]n1	kinase activity, KinaseProfiler	0.03 µM, species human	baseline: control	remaining activity	103%
c1cnc2ccc(Nc3nc(NC4CC4)c4nc[nH]c4n3)cc2c1	kinase activity, inhibitor, SelectScreen kinase profiling	1 µM	baseline: control	remaining activity	55%
O=C1NC(=O)/C(=C/c2ccc(-c3ccc(F)cc3O)o2)S1	enzyme activity	10 µM		remaining activity	8%
CNc1ncc2c(/C=C/C(=O)N3CCC(OC)CC3)nn(Cc3cccc(C(F)(F)F)c3)c2n1	kinase activity, inhibitor	1 µM	baseline: untreated control	remaining activity	115%
O=C1[C@H]2CCCN2[C@H](c2cccc3c2OCO3)N1c1ccc(Cl)c(Cl)c1 (racemic)	enzyme activity, inhibitor, ADP-Glo	100 µM		kinase activity	no effect
O=C(NC1CCC1)c1ccc2nc(-c3cccc(NS(=O)(=O)NCCN4CCCCC4)c3)cn2c1	enzyme activity	10 µM		remaining activity	82%
COc1cc(F)ccc1-c1ncnc(Nc2cccc(C[S@](C)(=N)=O)c2)n1	kinase activity	10 µM, together with: 10 µM ATP		remaining activity	96%
C=CC(=O)N1CCC(COCC(=O)N2CCN(c3nc(-c4cnc(N)nc4C(F)F)nc(N4CCOC[C@@H]4C)n3)CC2)CC1	KINOMEscan	1 µM		remaining binding	91%

Repeated from above:
SMILES	assay	conditions	how to read	endpoint	result
O=C1[C@H]2CCCN2[C@H](c2cccc3c2OCO3)N1c1ccc(Cl)c(Cl)c1 (racemic)	enzyme activity, inhibitor, ADP-Glo	100 µM		kinase activity	no effect
